Published values of several laboratories.
A part holds a random share of what one study measured.
Chain of UniProt Q14289 (whole entry, looked up): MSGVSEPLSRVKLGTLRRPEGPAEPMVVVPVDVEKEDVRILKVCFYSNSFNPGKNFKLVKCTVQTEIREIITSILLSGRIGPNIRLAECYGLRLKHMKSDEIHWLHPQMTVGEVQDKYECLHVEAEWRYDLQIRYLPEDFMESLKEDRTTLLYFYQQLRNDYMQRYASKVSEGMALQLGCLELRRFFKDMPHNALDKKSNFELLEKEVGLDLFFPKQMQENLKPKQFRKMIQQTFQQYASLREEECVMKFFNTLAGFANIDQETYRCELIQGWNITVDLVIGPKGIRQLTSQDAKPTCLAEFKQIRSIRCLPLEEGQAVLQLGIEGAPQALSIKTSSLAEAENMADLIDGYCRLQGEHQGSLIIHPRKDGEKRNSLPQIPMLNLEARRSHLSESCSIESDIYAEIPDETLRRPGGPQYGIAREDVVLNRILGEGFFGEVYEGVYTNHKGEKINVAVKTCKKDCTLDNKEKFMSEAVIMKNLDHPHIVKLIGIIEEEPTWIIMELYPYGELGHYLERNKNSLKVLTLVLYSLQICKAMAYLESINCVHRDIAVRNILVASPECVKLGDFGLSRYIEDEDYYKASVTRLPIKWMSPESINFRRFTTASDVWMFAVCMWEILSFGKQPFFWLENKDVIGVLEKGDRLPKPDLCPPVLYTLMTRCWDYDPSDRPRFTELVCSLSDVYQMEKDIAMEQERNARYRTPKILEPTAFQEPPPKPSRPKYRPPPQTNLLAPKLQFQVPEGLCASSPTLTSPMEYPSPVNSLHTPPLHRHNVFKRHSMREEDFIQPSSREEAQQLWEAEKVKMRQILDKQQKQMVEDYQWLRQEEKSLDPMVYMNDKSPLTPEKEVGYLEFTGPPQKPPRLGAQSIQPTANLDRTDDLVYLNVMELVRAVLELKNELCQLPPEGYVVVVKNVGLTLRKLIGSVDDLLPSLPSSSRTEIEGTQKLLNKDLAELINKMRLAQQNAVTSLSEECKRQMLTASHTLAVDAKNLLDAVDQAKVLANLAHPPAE
Chain of UniProt Q9UIK4 (whole entry, looked up): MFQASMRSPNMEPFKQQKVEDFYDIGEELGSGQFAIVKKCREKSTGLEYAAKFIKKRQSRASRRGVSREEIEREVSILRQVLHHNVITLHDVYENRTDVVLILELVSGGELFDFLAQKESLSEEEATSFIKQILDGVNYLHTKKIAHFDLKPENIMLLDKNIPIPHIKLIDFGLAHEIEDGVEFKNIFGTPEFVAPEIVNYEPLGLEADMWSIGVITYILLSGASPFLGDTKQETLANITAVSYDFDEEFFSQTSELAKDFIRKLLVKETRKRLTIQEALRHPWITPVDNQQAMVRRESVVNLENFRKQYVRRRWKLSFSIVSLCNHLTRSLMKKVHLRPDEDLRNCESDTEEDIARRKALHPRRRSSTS
Chain of UniProt P15056 (whole entry, looked up): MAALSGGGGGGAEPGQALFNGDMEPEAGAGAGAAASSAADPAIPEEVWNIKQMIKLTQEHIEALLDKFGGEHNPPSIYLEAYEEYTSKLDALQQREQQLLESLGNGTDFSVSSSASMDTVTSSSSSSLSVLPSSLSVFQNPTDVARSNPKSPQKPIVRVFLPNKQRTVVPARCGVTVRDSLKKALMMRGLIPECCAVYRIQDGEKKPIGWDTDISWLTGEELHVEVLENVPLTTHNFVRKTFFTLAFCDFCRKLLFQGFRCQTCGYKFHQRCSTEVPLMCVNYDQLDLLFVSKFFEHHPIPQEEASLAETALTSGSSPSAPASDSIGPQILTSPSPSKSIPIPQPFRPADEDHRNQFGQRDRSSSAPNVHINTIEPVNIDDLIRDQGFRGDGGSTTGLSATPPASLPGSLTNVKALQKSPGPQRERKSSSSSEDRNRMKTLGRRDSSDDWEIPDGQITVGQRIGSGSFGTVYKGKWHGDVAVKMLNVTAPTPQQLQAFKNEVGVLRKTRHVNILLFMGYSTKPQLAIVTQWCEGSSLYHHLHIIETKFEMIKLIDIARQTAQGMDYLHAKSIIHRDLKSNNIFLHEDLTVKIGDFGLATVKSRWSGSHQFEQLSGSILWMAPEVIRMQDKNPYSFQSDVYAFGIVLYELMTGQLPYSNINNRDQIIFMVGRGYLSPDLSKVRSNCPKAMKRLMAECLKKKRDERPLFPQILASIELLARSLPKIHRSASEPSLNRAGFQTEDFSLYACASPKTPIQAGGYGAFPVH

Set 1 — read-out: enzyme activity; action: inhibitor; concentration: 0.5 µM; relative to: control
Target: Proto-oncogene tyrosine-protein kinase receptor Ret (RET, Homo sapiens, UniProt P07949)
Chain of UniProt P07949 (whole entry, looked up): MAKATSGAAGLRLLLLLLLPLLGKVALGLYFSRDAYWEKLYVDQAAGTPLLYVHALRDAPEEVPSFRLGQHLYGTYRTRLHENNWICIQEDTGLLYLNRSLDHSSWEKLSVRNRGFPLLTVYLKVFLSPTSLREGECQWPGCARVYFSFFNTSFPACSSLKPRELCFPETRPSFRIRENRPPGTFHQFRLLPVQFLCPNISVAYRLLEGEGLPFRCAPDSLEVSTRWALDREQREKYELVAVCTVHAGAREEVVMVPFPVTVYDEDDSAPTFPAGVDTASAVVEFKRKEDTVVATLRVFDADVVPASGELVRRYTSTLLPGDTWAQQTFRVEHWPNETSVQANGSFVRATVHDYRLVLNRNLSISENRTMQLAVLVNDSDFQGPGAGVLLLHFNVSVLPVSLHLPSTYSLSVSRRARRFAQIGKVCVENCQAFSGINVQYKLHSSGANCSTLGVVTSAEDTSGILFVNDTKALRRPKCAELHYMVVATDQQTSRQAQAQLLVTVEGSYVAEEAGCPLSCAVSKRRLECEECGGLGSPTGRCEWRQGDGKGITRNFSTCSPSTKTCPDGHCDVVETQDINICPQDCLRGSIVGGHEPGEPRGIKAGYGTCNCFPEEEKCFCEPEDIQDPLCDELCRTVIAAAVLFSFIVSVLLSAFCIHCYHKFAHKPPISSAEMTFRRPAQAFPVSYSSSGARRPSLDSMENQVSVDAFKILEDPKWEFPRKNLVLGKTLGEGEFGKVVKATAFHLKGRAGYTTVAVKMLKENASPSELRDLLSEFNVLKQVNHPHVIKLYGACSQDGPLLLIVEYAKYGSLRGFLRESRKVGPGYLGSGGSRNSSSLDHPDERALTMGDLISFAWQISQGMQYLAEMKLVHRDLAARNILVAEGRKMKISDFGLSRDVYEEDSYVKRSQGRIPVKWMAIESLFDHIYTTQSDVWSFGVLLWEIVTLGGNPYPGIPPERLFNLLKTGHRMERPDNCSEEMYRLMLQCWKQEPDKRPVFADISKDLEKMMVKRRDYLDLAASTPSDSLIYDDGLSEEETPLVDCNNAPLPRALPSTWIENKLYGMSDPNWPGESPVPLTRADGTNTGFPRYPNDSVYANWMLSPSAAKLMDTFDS
For `NCCNc1ncc(C(N)=O)c(Nc2cccc(C(F)(F)F)c2)n1`, the remaining activity was 74.1%.
`O=C(Nc1cccc(Nc2cc(Nc3cccc(C(F)(F)F)c3)ncn2)c1)C1CC1` has a remaining activity of 109%.
With `Cn1sc(=O)n(Cc2ccccc2)c1=O` the remaining activity was 106%.
The remaining activity of `Cn1c2ccccc2c2c3c(c4c5ccccc5n(CCC#N)c4c21)CNC3=O` is reported as 0.516%.
`CCOC(=O)c1c(C)[nH]c(/C=C2\C(=O)Nc3ccccc32)c1C` has a remaining activity of 40.8%.
`CC(C)[C@H](CO)Nc1nc(Nc2cc(N)cc(Cl)c2)c2ncn(C(C)C)c2n1` gave a remaining activity of 61.6%.
With `O=C1NC(=O)C(c2cn(CCCn3ccnc3)c3ccccc23)=C1Nc1ccccc1` the remaining activity was 95.6%.
`Cc1nc(-c2ccccc2)c(-c2ccncc2)o1` has a remaining activity of 97.5%.
`O=S(=O)(c1cccc2cnccc12)N1CCCNCC1` has a remaining activity of 97.8%.
`O=C(O)c1ccc2c3c1cccc3c(=O)n1c3ccccc3nc21` has a remaining activity of 96.8%.
The remaining activity of `Oc1ccc(-c2nc(-c3ccncc3)c(-c3ccc(F)cc3)[nH]2)cc1` is reported as 89.3%.
With `Nc1[nH]nc2nc3ccccc3nc12` the remaining activity was 97.1%.

Set 2 — read-out: cell-free assay; technique: competition with immobilised ligand; concentration: 1 µM
SMILES: O=C1CCc2cc(Nc3cc(OC4CCOCC4)c([N+](=O)[O-])cc3Cl)ccc2N1
It gave 91% for remaining binding (Mitogen-activated protein kinase kinase kinase kinase 3 (MAP4K3, Homo sapiens, UniProt Q8IVH8)).
It gave 100% for remaining binding (Mitogen-activated protein kinase 6 (MAPK6, Homo sapiens, UniProt Q16659)).
Tyrosine-protein kinase Mer (MERTK, Homo sapiens, UniProt Q12866) — remaining binding: 100%.
It gave 100% for remaining binding (Leucine-rich repeat serine/threonine-protein kinase 2 (LRRK2, Homo sapiens, UniProt Q5S007, G2019S)).
It gave 88% for remaining binding (Ephrin type-B receptor 3 (EPHB3, Homo sapiens, UniProt P54753)).
ALK tyrosine kinase receptor (ALK, Homo sapiens, UniProt Q9UM73) — remaining binding: 82%.
It gave 100% for remaining binding (Serine/threonine-protein kinase B-raf (BRAF, Homo sapiens, UniProt P15056)).
The remaining binding was 100% (LIM domain kinase 1 (LIMK1, Homo sapiens, UniProt P53667)).
Protein-tyrosine kinase 2-beta (PTK2B, Homo sapiens, UniProt Q14289) — remaining binding: 83%.
For Mitotic checkpoint serine/threonine-protein kinase BUB1 (BUB1, Homo sapiens, UniProt O43683): remaining binding read 89%.
For Death-associated protein kinase 2 (DAPK2, Homo sapiens, UniProt Q9UIK4): remaining binding read 79%.
It gave 86% for remaining binding (Cyclin-dependent kinase 7 (CDK7, Homo sapiens, UniProt P50613)).
For Phosphatidylinositol 4,5-bisphosphate 3-kinase catalytic subunit alpha isoform (PIK3CA, Homo sapiens, UniProt P42336, E545A): remaining binding read 100%.
The remaining binding was 68% (Calcium/calmodulin-dependent protein kinase type 1B (PNCK, Homo sapiens, UniProt Q6P2M8)).
Receptor-type tyrosine-protein kinase FLT3 (FLT3, Homo sapiens, UniProt P36888, R834Q) — remaining binding: 87%.

Set 3 — technique: RNA Bind-n-Seq; molecule type: RNA; sample: in vitro; concentration: 200 nM; setting: whole 134-nt RNA, ends assumed; with: 150 mM KCl; relative to: input library; direction: higher = stronger binding
Target: Ras GTPase-activating protein-binding protein 1, full length (G3BP1, Homo sapiens, UniProt Q13283)
Chain of UniProt Q13283 (whole entry, looked up): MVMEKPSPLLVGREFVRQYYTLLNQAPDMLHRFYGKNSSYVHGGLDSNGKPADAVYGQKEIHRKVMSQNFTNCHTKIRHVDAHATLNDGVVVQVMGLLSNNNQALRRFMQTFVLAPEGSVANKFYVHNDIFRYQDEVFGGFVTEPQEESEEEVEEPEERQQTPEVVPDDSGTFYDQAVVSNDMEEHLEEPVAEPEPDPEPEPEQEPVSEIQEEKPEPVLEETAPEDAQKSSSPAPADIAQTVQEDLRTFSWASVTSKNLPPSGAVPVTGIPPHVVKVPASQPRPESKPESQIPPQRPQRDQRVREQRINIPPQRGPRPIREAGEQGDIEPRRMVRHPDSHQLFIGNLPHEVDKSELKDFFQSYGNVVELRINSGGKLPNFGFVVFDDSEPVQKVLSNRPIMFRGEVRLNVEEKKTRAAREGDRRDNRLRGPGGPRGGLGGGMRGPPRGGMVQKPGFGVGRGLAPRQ
Constant ends, left off below: GGGAGUUCUACAGUCCGACGAUC … UGGAAUUCUCGGGUGUCAAGG
The log2 enrichment of `UGAAAAGAACUGCUCUCCAUGGAGAGAGUAACUCUGUCCUUAUUAUCGGACCCCGAGGAUCAGGAAAAACUAUGGUAAAAGCUGUUGAUU` is reported as -1.43.
With `GUCCUGUGCUACACAUCGUAUGUACCGAAUCGGGGAAAGGGGAAAAAGGGGAAAGGGGAAAGUAUUAUGUUACGCCGUUCGGAUCUGCAC` the log2 enrichment was 0.604.
With `CACAGACAACACGCACCCACACAGACACAGAGGGAAGGGGUUGGGAUGUGGACAGGGUGCACAGCAGGGCGGGGUAGGACCCCAGCCCCU` the log2 enrichment was 1.47.
`AGUCCUGUGCUACACAUCGUAUGUACCGAAUCAAACCCAAACCCAAACCCCCCCAAAAAAGUAUUAUGUUACGCCGUUCGGAUCUGCACU` gave a log2 enrichment of -0.569.
For `UCCUGUGCUACACAUCGUAUGUACCGAAUCGGGGUUUUUGGGUUUUUGGGGUUUUUGGGAAAGUAUUAUGUUACGCCGUUCGGAUCUGCA`, the log2 enrichment was 0.107.
`CUGUGCUACACAUCGUAUGUACCGAAUCGGGGAAAAAAAGGGGAAAAAAAGGAAAAAAAGGAAAGUAUUAUGUUACGCCGUUCGGAUCUG` gave a log2 enrichment of -0.502.
With `CUGUGCUACACAUCGUAUGUACCGAAUCGGGGUUUUUGGGGUUUUUGGGGAAAAAAAGGGGAAAGUAUUAUGUUACGCCGUUCGGAUCUG` the log2 enrichment was -0.323.
With `ACCAUGCAGGUGGGCAUCUUUGGGAAGUGGGGCAAGGGGGGGAUAGGGAGGGGGGUAACACUUUGGGAACAGGUGAAACCAGGUCGUUUC` the log2 enrichment was 0.917.

Set 4 — technique: universal PBM; molecule type: double-stranded DNA, one strand shown; sample: in vitro; concentration: 600 nM; direction: higher = stronger binding
Target: Sal-like protein 4, full length isoform A (SALL4, Homo sapiens, UniProt Q9UJQ4, residues 1-1053)
Chain of UniProt Q9UJQ4 (whole entry, looked up): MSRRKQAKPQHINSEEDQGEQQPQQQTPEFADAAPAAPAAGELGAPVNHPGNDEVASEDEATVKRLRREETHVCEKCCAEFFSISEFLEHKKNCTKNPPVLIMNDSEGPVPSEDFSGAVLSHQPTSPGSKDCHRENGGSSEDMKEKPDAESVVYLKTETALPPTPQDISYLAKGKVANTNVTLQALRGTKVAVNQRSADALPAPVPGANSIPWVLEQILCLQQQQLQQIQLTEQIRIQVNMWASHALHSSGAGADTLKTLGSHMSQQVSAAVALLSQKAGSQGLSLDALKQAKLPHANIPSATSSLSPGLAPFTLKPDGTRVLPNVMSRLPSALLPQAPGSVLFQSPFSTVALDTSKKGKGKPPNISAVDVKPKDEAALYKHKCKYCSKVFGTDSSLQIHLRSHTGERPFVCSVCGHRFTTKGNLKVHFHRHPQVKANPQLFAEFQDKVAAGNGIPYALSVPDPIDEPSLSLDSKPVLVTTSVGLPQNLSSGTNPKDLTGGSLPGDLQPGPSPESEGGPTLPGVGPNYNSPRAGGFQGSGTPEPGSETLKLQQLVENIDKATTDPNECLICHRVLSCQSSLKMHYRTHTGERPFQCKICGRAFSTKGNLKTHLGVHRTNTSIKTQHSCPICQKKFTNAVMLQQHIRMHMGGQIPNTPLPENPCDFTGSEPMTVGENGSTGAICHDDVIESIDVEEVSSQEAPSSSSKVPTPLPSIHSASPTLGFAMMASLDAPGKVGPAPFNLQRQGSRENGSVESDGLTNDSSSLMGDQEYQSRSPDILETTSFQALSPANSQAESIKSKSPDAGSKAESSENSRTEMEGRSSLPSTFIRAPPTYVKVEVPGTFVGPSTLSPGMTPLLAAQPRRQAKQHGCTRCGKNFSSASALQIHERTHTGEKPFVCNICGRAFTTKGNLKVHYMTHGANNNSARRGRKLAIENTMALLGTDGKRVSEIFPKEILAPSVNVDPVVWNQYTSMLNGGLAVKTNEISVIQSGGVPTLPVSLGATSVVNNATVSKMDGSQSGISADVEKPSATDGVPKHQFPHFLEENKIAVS
Setting: 8-mer, flanks averaged, mean of replicates
`CGGTGAAA` gave an E-score of 0.091.
With `CTCCGATA` the E-score was 0.0532.
For `TAACAATA`, the E-score was 0.396.
With `CATTGTGG` the E-score was 0.00455.
For `AAGTATCG`, the E-score was 0.101.
With `GCCAATCC` the E-score was -0.18.
`AATGTTAG` gave an E-score of 0.17.
`CGATAGTA` gave an E-score of -0.0029.

Repeated from above (set 4):
With `CATTGTGG` the E-score was 0.00455.
For `AAGTATCG`, the E-score was 0.101.
With `CTCCGATA` the E-score was 0.0532.
With `GCCAATCC` the E-score was -0.18.
`AATGTTAG` gave an E-score of 0.17.
`CGATAGTA` gave an E-score of -0.0029.
